{"data": "Measurements pooled from the literature", "cell line": "Vero E6", "note": "Protocols differ between the studies behind these lines."}
{"Structure (SMILES)": "COc1cccc2c(N3CCc4ccccc4C3C)nc(Nc3ccc(F)cc3C)nc12 (centres unmarked)", "test": "cell number", "conditions": "40 (unit not given)", "endpoint": "CC50", "result": "> 2.5 µM"}
{"Structure (SMILES)": "NC(=O)c1nc(F)c[nH]c1=O", "conditions": "concentration not given, 4 (unit not given), with: verapamil", "endpoint": "unbound fraction in cells", "result": 0.013}
{"Structure (SMILES)": "Cc1nn(-c2ccc(Cl)cc2)c2c1C(c1ccc(Cl)c(Cl)c1)C(C#N)=C(N)O2 (centres unmarked)", "test": "MTT", "conditions": "25 µM", "endpoint": "viability", "result": "56.4%"}
{"Structure (SMILES)": "COc1cccc(-c2ccc(CN3CCCC(c4nc5ccc(C)cc5c(=O)[nH]4)C3)cc2)c1 (centres unmarked)", "test": "cytotoxicity, CellTiter-Glo", "conditions": "retest 8-point, no virus", "endpoint": "AC50", "result": "28.2 µM"}
{"Structure (SMILES)": "COc1ccc(C[C@@H]2c3cc(Oc4cc(C[C@@H]5c6cc(O)c(OC)cc6CCN5C)ccc4O)c(OC)cc3CCN2C)cc1", "conditions": "100 µM", "endpoint": "cytotoxicity", "result": "0%"}
{"Structure (SMILES)": "C[C@H](CCC(=O)O)[C@H]1CC[C@H]2[C@@H]3[C@@H](O)C[C@@H]4C[C@H](O)CC[C@]4(C)[C@H]3CC[C@]12C", "test": "cytotoxicity, MTT", "conditions": "24 h", "endpoint": "IC50", "result": "> 100 µM"}
{"Structure (SMILES)": "O=C(O[C@@H]1Cc2c(O)cc(O)cc2O[C@@H]1c1cc(O)c(O)c(O)c1)c1cc(O)c(O)c(O)c1", "conditions": "12.5 µM", "endpoint": "cytotoxicity", "result": "0%"}
{"Structure (SMILES)": "CC(C)CC(NC(=O)OCc1ccccc1)C(=O)NC(C(=O)NCC(=O)C=[N+]=[N-])C(C)C (centres unmarked)", "test": "cell number", "conditions": "40 (unit not given)", "endpoint": "CC50", "result": "> 2.5 µM"}
{"Structure (SMILES)": "Cc1ccc(C)c(Nc2cc(C(=O)NCCCN(C)C3CCCCC3)c3ccccc3n2)c1", "test": "cytotoxicity, CellTiter-Glo", "conditions": "retest 8-point, no virus", "endpoint": "AC50", "result": "14.1 µM"}
{"Structure (SMILES)": "CC(C)=CCN1Cc2cc(Cl)cc3[nH]c(=S)n(c23)C[C@@H]1C", "test": "cell number", "conditions": "40 (unit not given)", "endpoint": "CC50", "result": "> 2.5 µM"}
{"Structure (SMILES)": "O=C(/C=C/c1ccc(O)c(O)c1/C=C/c1ccc(O)c(O)c1)O[C@H](Cc1ccc(O)c(O)c1)C(=O)O", "conditions": "6.25 µM", "endpoint": "cytotoxicity", "result": "0%"}
{"Structure (SMILES)": "COc1ccc(CCN2CCC(Nc3nc4ccccc4n3Cc3ccc(F)cc3)CC2)cc1", "test": "cell number", "conditions": "40 (unit not given)", "endpoint": "CC50", "result": "> 2.5 µM"}
{"Structure (SMILES)": "CC(C)=CCc1c(O)ccc(C(=O)/C=C/c2ccc(O)cc2)c1O", "conditions": "12.5 µM", "endpoint": "cytotoxicity", "result": "0%"}
{"Structure (SMILES)": "C=C[C@@H]1C[C@]1(NC(=O)[C@@H]1C[C@@H](Oc2ncc(OC)c3ccc(Cl)cc23)CN1C(=O)[C@@H](NC(=O)OC(C)(C)C)C(C)(C)C)C(=O)NS(=O)(=O)C1CC1", "test": "cell viability, MTT", "conditions": "48 (unit not given)", "endpoint": "CC50", "result": "48.9 µM"}
{"Structure (SMILES)": "C=C[C@@](C)(/C=C/c1ccc(O)cc1)CCC=C(C)C", "conditions": "12.5 µM", "endpoint": "cytotoxicity", "result": "0%"}
{"Structure (SMILES)": "CCN(CCO)CCCC(C)Nc1ccnc2cc(Cl)ccc12 (centres unmarked)", "conditions": "with: verapamil", "endpoint": "intracellular fraction", "result": 0.469}
{"Structure (SMILES)": "Cc1nn(-c2ccc(Cl)cc2)c2c1C(c1ccc(Cl)cc1)C(C#N)=C(N)O2 (centres unmarked)", "test": "MTT", "conditions": "25 µM", "endpoint": "viability", "result": "52.9%"}
{"Structure (SMILES)": "CC(C)(C)NCc1ccc(Nc2ccnc3cc(Cl)ccc23)cc1O", "test": "cell number", "conditions": "40 (unit not given)", "endpoint": "CC50", "result": "> 2.5 µM"}
{"Structure (SMILES)": "COc1ccc2c(O[C@@H]3C[C@H]4C(=O)N[C@]5(C(=O)NS(=O)(=O)C6CC6)C[C@H]5/C=C\\CCCCN(C)C(=O)[C@@H]4C3)cc(-c3nc(C(C)C)cs3)nc2c1C", "test": "cell viability, MTT", "conditions": "48 (unit not given)", "endpoint": "CC50", "result": "2.1 µM"}
{"Structure (SMILES)": "CCc1ccc(Sc2cc(C(=O)NCCCN3CCC(C)CC3)c3ccccc3n2)cc1", "test": "cytotoxicity, CellTiter-Glo", "conditions": "retest 8-point, no virus", "endpoint": "AC50", "result": "14.1 µM"}
{"Structure (SMILES)": "CCNC/C=C\\CNCCCCNCCCCNC/C=C\\CNCC", "test": "cell number", "conditions": "40 (unit not given)", "endpoint": "CC50", "result": "> 2.5 µM"}
{"Structure (SMILES)": "CCC(CC)COC(=O)[C@H](C)N[P@](=O)(OC[C@H]1O[C@@](C#N)(c2ccc3c(N)ncnn23)[C@H](O)[C@@H]1O)Oc1ccccc1", "conditions": "concentration not given, 4 (unit not given), with: verapamil", "endpoint": "unbound fraction in cells", "result": 0.0014}
{"Structure (SMILES)": "CC[C@H](NC(=O)[C@H](CS(=O)(=O)CC1CC1)N[C@@H](c1ccc(F)cc1)C(F)(F)F)C(=O)C(=O)NC1CC1", "test": "cell number", "conditions": "40 (unit not given)", "endpoint": "CC50", "result": "> 2.5 µM"}
{"Structure (SMILES)": "Cc1oc(-c2ccccc2)nc1CCC(=O)c1ccc(CC2SC(=O)NC2=O)cc1 (centres unmarked)", "conditions": "3 (unit not given)", "endpoint": "CC50", "result": "34.7 µM"}
{"Structure (SMILES)": "Fc1ccc(-c2ccc(CN3CCN(c4cccc5ccoc45)CC3)[nH]2)cc1", "test": "cell number", "conditions": "40 (unit not given)", "endpoint": "CC50", "result": "> 2.5 µM"}
{"Structure (SMILES)": "CC(C)(C)OC(=O)N[C@H]1CCCCC/C=C\\[C@@H]2C[C@@]2(C(=O)NS(=O)(=O)C2CC2)NC(=O)[C@@H]2C[C@@H](OC(=O)N3Cc4cccc(F)c4C3)CN2C1=O", "test": "cell viability, MTT", "conditions": "48 (unit not given)", "endpoint": "CC50", "result": "> 50 µM"}
{"note": "Some of these lines once more:"}
{"Structure (SMILES)": "CCNC/C=C\\CNCCCCNCCCCNC/C=C\\CNCC", "test": "cell number", "conditions": "40 (unit not given)", "endpoint": "CC50", "result": "> 2.5 µM"}
{"Structure (SMILES)": "CCC(CC)COC(=O)[C@H](C)N[P@](=O)(OC[C@H]1O[C@@](C#N)(c2ccc3c(N)ncnn23)[C@H](O)[C@@H]1O)Oc1ccccc1", "conditions": "concentration not given, 4 (unit not given), with: verapamil", "endpoint": "unbound fraction in cells", "result": 0.0014}
{"Structure (SMILES)": "CC[C@H](NC(=O)[C@H](CS(=O)(=O)CC1CC1)N[C@@H](c1ccc(F)cc1)C(F)(F)F)C(=O)C(=O)NC1CC1", "test": "cell number", "conditions": "40 (unit not given)", "endpoint": "CC50", "result": "> 2.5 µM"}
{"Structure (SMILES)": "Cc1oc(-c2ccccc2)nc1CCC(=O)c1ccc(CC2SC(=O)NC2=O)cc1 (centres unmarked)", "conditions": "3 (unit not given)", "endpoint": "CC50", "result": "34.7 µM"}
